Published values gathered from unrelated publications.
± marks the error that the study gave.
eis: N-acetyltransferase Eis (eis, Mycobacterium tuberculosis, UniProt P9WFK7)
Chain of UniProt P9WFK7 (whole entry, looked up): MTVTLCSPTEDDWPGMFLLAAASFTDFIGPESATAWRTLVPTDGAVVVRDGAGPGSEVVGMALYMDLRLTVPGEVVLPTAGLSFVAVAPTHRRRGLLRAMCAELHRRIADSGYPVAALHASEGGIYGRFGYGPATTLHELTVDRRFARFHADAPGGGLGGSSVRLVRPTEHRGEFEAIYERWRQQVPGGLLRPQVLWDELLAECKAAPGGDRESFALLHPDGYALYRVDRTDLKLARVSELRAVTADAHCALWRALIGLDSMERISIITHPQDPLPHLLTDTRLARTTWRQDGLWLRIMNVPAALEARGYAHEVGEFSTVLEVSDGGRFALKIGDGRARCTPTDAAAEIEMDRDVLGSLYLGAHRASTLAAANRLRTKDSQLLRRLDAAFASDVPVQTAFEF
4'-phosphopantetheinyl transferase PptT: 4'-phosphopantetheinyl transferase PptT (Mycobacterium tuberculosis, UniProt O33336)
Chain of UniProt O33336 (whole entry, looked up): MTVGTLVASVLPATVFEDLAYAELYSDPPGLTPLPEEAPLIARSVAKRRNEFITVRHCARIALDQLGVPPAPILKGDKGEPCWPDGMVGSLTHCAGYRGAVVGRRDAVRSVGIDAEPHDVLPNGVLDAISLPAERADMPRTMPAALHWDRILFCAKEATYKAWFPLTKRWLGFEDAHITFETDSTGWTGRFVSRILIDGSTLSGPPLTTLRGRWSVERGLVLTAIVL
folA: Dihydrofolate reductase (folA, Mycobacterium tuberculosis, UniProt P9WNX1)
Chain of UniProt P9WNX1 (whole entry, looked up): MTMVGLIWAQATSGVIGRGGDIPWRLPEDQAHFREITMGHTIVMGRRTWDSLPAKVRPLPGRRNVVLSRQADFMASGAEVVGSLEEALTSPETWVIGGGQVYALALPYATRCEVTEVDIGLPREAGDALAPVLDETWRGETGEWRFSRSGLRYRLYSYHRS
Chain of UniProt P21554 (whole entry, unmodified, looked up): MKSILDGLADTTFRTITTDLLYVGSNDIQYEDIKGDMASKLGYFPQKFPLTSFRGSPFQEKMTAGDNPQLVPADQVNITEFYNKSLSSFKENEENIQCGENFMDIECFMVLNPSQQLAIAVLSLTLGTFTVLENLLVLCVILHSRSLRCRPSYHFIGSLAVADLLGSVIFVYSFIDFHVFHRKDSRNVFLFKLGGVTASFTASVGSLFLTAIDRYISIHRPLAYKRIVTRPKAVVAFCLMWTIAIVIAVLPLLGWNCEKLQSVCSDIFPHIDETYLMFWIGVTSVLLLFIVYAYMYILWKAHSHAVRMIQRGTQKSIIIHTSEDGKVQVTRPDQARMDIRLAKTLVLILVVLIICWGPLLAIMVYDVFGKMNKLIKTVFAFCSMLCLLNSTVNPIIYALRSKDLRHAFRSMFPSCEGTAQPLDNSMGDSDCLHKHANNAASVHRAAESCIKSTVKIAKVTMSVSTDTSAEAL
Chain of UniProt P34972 (whole entry, unmodified, looked up): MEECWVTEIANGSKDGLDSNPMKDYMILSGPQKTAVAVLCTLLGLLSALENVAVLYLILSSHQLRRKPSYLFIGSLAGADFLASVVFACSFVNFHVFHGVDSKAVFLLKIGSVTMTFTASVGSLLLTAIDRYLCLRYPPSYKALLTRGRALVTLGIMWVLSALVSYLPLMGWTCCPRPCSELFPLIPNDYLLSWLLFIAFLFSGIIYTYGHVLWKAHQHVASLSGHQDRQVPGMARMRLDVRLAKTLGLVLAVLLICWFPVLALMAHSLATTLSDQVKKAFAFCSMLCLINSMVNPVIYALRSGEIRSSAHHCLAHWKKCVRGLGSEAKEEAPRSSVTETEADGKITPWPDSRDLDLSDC
Chain of UniProt Q60492 (whole entry, looked up): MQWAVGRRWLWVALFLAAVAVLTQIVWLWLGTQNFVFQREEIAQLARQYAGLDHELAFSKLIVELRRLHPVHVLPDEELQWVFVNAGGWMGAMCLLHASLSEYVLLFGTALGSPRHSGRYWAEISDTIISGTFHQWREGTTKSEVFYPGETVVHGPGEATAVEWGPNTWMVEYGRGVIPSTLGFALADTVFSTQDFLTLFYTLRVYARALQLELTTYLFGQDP
Chain of UniProt P01901 (whole entry, looked up): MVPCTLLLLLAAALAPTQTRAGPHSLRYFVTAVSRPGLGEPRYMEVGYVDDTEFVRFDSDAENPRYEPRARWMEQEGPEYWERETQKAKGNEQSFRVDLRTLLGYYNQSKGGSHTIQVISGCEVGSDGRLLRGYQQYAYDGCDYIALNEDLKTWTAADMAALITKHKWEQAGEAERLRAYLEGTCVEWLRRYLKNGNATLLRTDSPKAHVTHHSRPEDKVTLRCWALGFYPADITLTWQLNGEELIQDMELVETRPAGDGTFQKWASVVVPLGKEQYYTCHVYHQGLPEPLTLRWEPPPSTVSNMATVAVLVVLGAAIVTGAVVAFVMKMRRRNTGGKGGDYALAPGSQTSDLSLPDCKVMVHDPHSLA
Chain of UniProt P30874 (whole entry, looked up): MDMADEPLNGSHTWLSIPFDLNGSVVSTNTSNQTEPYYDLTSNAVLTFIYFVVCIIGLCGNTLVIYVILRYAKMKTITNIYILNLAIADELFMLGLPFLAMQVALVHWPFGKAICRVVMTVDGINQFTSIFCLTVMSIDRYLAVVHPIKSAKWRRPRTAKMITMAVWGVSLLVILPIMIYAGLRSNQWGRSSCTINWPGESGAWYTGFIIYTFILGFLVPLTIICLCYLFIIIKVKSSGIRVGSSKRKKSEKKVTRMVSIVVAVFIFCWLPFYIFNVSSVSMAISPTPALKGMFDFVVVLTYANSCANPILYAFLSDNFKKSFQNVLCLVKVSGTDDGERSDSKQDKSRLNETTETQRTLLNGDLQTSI
Chain of UniProt O60656 (whole entry, looked up): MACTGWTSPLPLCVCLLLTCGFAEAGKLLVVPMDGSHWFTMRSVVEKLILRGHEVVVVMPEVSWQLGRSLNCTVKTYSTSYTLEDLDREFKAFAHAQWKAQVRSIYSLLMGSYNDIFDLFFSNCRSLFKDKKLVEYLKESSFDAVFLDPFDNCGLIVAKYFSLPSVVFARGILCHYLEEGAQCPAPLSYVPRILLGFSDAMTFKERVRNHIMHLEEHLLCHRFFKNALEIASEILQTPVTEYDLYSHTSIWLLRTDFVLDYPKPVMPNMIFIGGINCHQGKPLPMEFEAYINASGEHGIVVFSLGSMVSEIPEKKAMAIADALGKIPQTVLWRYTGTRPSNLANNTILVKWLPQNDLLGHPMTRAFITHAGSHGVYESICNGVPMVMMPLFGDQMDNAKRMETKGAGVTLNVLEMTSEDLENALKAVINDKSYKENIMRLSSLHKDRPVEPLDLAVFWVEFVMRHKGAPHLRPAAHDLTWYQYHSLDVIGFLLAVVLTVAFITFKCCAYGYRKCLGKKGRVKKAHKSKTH
Chain of UniProt O75469 (whole entry, looked up): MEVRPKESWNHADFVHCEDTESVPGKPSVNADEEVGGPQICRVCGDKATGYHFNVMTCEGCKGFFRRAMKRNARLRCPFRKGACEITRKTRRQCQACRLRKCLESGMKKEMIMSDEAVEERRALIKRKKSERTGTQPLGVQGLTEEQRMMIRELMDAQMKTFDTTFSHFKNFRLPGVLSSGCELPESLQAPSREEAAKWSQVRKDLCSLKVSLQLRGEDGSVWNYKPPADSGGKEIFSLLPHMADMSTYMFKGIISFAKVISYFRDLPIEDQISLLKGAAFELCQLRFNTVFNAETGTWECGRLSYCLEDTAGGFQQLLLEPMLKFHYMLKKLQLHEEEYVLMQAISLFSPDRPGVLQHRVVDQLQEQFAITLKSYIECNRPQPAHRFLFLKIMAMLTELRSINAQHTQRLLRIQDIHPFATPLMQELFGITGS
Chain of UniProt P40337 (whole entry, looked up): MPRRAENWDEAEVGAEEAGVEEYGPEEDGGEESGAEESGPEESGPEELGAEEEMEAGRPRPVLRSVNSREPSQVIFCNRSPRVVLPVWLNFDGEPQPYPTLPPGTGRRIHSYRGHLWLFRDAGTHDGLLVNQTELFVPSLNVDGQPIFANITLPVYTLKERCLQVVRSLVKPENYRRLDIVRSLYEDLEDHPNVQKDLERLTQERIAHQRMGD
Chain of UniProt P33261 (whole entry, looked up): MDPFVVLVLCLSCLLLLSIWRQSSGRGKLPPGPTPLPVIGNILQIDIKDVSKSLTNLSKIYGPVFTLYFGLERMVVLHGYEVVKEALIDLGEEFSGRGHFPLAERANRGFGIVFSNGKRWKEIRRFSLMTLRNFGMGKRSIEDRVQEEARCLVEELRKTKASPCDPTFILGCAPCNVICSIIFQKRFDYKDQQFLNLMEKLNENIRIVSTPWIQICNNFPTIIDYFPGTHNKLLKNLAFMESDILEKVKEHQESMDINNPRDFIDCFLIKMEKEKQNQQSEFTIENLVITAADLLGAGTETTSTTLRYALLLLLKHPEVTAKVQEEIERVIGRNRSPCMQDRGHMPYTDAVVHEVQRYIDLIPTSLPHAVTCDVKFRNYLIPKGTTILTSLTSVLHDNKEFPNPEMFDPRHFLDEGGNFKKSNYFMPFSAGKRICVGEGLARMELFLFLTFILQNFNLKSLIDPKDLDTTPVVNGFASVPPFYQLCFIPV
Chain of UniProt Q9ULV8 (whole entry, looked up): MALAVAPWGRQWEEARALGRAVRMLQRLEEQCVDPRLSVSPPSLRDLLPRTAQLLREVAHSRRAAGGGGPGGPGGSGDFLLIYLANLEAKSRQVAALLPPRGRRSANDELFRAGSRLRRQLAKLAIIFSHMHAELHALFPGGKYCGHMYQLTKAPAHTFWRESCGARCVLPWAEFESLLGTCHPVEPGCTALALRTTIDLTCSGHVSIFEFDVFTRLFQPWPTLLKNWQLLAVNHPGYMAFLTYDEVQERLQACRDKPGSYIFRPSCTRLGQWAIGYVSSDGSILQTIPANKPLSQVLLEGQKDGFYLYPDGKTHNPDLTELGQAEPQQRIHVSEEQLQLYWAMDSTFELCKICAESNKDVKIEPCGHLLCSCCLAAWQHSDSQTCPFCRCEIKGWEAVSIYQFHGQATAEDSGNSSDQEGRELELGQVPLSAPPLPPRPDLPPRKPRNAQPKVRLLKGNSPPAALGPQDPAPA

Compound | target | test | test system | setting | measurement | value
CCC1CCc2c(sc3nc(SCCN4CCCC4)nc(N)c23)C1 (stereo not shown) | eis | inhibitor | – | – | IC50 | > 200000 nM
CC(=O)NCCCC[C@H](NC(=O)CNC(=O)CNC(=O)[C@@H](NC(=O)[C@H](CO)NC(=O)[C@H](CCCCN)NC(C)=O)[C@@H](C)O)C(=O)N[C@@H](C)C(=O)N1CCC[C@H]1C(N)=O | Bromodomain adjacent to zinc finger domain protein 2B, bromodomain (BAZ2B, Homo sapiens, UniProt Q9UIF8) | binding, ITC | – | pH 7.5 | Kd | > 2000 µM
C#CCN(Cc1ccc2nc[nH]c(=O)c2c1)c1ccc(C(=O)N[C@@H](CCC(=O)O)C(=O)O)cc1 | 4'-phosphopantetheinyl transferase PptT | enzyme activity, inhibitor, fluorescence polarization | – | enzyme 100 nM | IC50 | 330 nM
CSCC[C@H](NC(=O)[C@@H]1CSSC[C@H](NC(=O)[C@H](CCCCN)NC(=O)[C@H](Cc2ccc(O)cc2)NC(=O)CNC(=O)[C@@H](N)CC(C(=O)O)C(=O)O)C(=O)N[C@@H](C(C)C)C(=O)N[C@H](Cc2c[nH]c3ccccc23)C(=O)N[C@@H](CCCCN)C(=O)N[C@@H]([C@@H](C)O)C(=O)N1)C(=O)N1C[C@H](O)C[C@H]1C(=O)N[C@@H](C)C(=O)O | Somatostatin receptor type 2 (SSTR2, Homo sapiens, UniProt P30874) | β-arrestin recruitment, agonist | – | – | EC50 | > 300000 nM
COC(=O)[C@@H](CCCNC(=O)OC(C)(C)C)NC(=O)c1ccc(NCc2ccc3nc(N)nc(N)c3c2Cl)cc1 | folA | enzyme activity, inhibitor | – | – | IC50 | 83.3 nM
CN(C)CCNC(=O)CSc1nc(N)c2c3c(sc2n1)CCCCC3 | eis | inhibitor | – | – | IC50 | 8700 ± 1200 nM
CCCCCc1cc(O)c2c(c1)OC(C)(C)C1CCC(C)=CC21 (single isomer, unassigned; (-)) | Cytochrome P450 2C19 (CYP2C19, Homo sapiens, UniProt P33261) | inhibitor, probe substrate | recombinant microsomes, HEK293 | unbound, corrected for fu,inc, added: omeprazole | Ki | 56 ± 18 nM
CC1=CC(C)=[N+]2C1=Cc1ccc(CCC(=O)NCCOCCOCCOCCOCC(=O)N[C@H](C(=O)N3C[C@H](O)C[C@H]3C(=O)NCc3ccc(-c4scnc4C)cc3)C(C)(C)C)n1[B-]2(F)F | von Hippel-Lindau disease tumor suppressor, with elongin B/C (VHL, Homo sapiens, UniProt P40337) | binding, TR-FRET | – | 90 min, total binding | Kd | 0.00301 µM
Nc1nc(SCCN2CCCC2)nc2sc3c(c12)CCCC3 | eis | inhibitor | – | – | IC50 | 990 ± 60 nM
CCCCCn1cc(C(=O)c2cccc3ccccc23)c2ccccc21 | Cannabinoid receptor 2 (CNR2, Homo sapiens, UniProt P34972) | G protein activation, agonist, BRET | – | – | EC50 | 3.8 nM
C#CCN(Cc1ccc2nc(N)nc(N)c2c1)c1ccc(C(=O)N[C@@H](CCC(=O)OCC)C(=O)OCC)cc1 | folA | enzyme activity, inhibitor | – | – | IC50 | 200 nM
CCCCCn1cc(C(=O)c2ccc3ccccc3c2)c2ccccc21 | Cannabinoid receptor 2 (CNR2, Homo sapiens, UniProt P34972, V261L) | G protein activation, agonist, BRET | – | – | EC50 | 832 nM
CCCCCc1cc(O)c2c(c1)OC(C)(C)C1CCC(C)=CC21 (single isomer, unassigned; (-)) | UDP-glucuronosyltransferase 1A9 (UGT1A9, Homo sapiens, UniProt O60656) | propofol glucuronidation, inhibitor | recombinant HEK293 microsomes | pH 7.4, added: propofol | IC50 | 11000 ± 3000 nM
CCCCCn1cc(C(=O)c2ccc3c(c2)CC(C)(C)C3)c2ccccc21 | Cannabinoid receptor 1 (CNR1, Homo sapiens, UniProt P21554, L193I) | G protein activation, agonist, BRET | – | – | EC50 | 708 nM
COc1ccc2c(c1)c(C(=O)O)c(C)n2CC(C)C | E3 ubiquitin-protein ligase CBL-C (Homo sapiens, UniProt Q9ULV8) | binding, NMR | – | – | Kd | 800 µM
Cc1nc2ccc(CN(C)c3ccc(C(=O)N[C@H](CCC(=O)O)C(=O)O)s3)cc2c(=O)[nH]1 | 4'-phosphopantetheinyl transferase PptT | enzyme activity, inhibitor, fluorescence polarization | – | enzyme 100 nM | IC50 | 70 nM

Compound | target | test | test system | setting | measurement | value
CCC1CCc2c(sc3nc(SCCCN4CCCCC4)nc(N)c23)C1 (racemic) | eis | inhibitor | – | – | IC50 | 910 ± 130 nM
Cc1nc(=O)c2cc(CN(C)c3ccc(C(=O)NCCCS(N)(=O)=O)s3)ccc2[nH]1 | 4'-phosphopantetheinyl transferase PptT | enzyme activity, inhibitor, fluorescence polarization | – | enzyme 100 nM | IC50 | 760 nM
CCC1CCc2c(sc3nc(SCCN4CCCCC4)nc(N)c23)C1 (stereo not shown) | eis | inhibitor | – | – | IC50 | 5400 ± 500 nM
Cc1nc(=O)c2cc(CN(C)c3ccc(C(=O)NCCC[S+]([O-])c4ccccc4O)s3)ccc2[nH]1 (stereo not shown) | 4'-phosphopantetheinyl transferase PptT | enzyme activity, inhibitor, fluorescence polarization | – | enzyme 100 nM | IC50 | 220 nM
Nc1nc(SCCCN2CCCCC2)nc2sc3c(c12)CCCC3 | eis | inhibitor | – | – | IC50 | 170 ± 40 nM
C#CCN(Cc1ccc2nc(N)[nH]c(=O)c2c1)c1ccc(C(=O)N[C@@H](CCC(=O)O)C(=O)O)cc1 | 4'-phosphopantetheinyl transferase PptT | enzyme activity, inhibitor, fluorescence polarization | – | enzyme 100 nM | IC50 | 270 nM
CC[C@H](C)[C@H](NC(=O)[C@@H](NC(=O)[C@@H](N)CO)[C@@H](C)CC)C(=O)N[C@@H](CC(N)=O)C(=O)N[C@@H](Cc1ccccc1)C(=O)N[C@@H](CCC(=O)O)C(=O)N[C@@H](CCCCN)C(=O)N[C@@H](CC(C)C)C(=O)O | H-2 class I histocompatibility antigen, K-B alpha chain, 25 (H2-K1, Mus musculus, UniProt P01901) | – | – | 37 °C | Kd | 0.0822 µM
CC[C@H](C)[C@H](NC(=O)[C@@H]1CCCN1C(=O)[C@H](CCC(=O)O)NC(=O)[C@H](CCSC)NC(=O)CNC(=O)[C@H](CC(N)=O)NC(=O)CNC(=O)CNC(=O)[C@H](CCC(=O)O)NC(=O)CNC(=O)[C@H](CCCNC(=N)N)NC(=O)[C@H](CCC(N)=O)NC(=O)[C@H](Cc1ccc(O)cc1)NC(=O)[C@H](CC(C)C)NC(=O)[C@H](CCCCN)NC(=O)[C@@H]1CCCN1C(=O)[C@H](CCC(N)=O)NC(=O)[C@H](C)NC(=O)[C@@H](NC(=O)[C@H](CCC(=O)O)NC(=O)[C@H](C)NC(=O)[C@H](CCC(=O)O)NC(=O)[C@@H](NC(=O)[C@@H]1CCCN1C(=O)[C@@H](N)CCCCN)C(C)C)C(C)C)C(=O)N1CCC[C@H]1C(=O)N[C@@H](CCC(=O)O)C(=O)N[C@@H](CC(=O)O)C(=O)N[C@@H](Cc1ccc(OS(=O)(=O)O)cc1)C(=O)N[C@@H](CC(C)C)C(=O)N[C@@H](CC(N)=O)C(=O)N[C@@H](CCC(=O)O)C(=O)N[C@@H](C)C(=O)N[C@@H](CC(C)C)C(=O)N[C@@H](CC(N)=O)C(=O)N[C@@H](C)C(=O)O | Prothrombin (F2, Homo sapiens, UniProt P00734) | enzyme activity, inhibitor, absorbance | – | pH 8 | Ki | 0.01 nM
C#CCN(Cc1ccc2nc(N)nc(N)c2c1)c1ccc(C(=O)N[C@@H](CCC(=O)O)C(=O)O)cc1 | folA | enzyme activity, inhibitor | – | – | IC50 | 3.3 nM
CCOC(=O)C1C(OC(c2ccc(Cl)cc2)c2ccc(Cl)cc2)CC2CCC1N2C (single isomer, unassigned) | Sigma non-opioid intracellular receptor 1 (SIGMAR1, Cavia porcellus, UniProt Q60492) | radioligand binding | guinea pig | racemate, added: [3H](+)-pentazocine | Ki | 8280 nM
O=S(=O)(O)CC1CSSCC(CS(=O)(=O)O)SS1 (stereo not shown) | Response regulator PhoP (Mycobacterium tuberculosis, UniProt P71814) | binding, LSPR | – | – | Kd | 18.4 ± 4.3 µM
CCC1CCc2c(sc3nc(SCC(=O)NCCN(C)C)nc(N)c23)C1 (stereo not shown) | eis | inhibitor | – | – | IC50 | 1100 ± 100 nM
CCCCCn1cc(C(=O)c2cccc3c2CC(C)(C)C3)c2ccccc21 | Cannabinoid receptor 1 (CNR1, Homo sapiens, UniProt P21554, I267L) | G protein activation, agonist, BRET | – | – | EC50 | 115 nM
CCC1(O)CC2CN(CCc3c([nH]c4ccccc34)C(C(=O)OC)(c3cc4c(cc3OC)N(C)C3C(O)(C(=O)OC)C(OC(=O)CCC5=[N+]6C(=Cc7c(C)cc(C)n7[B-]6(F)F)C=C5)C5(CC)C=CCN6CCC43C65)C2)C1 (stereo not shown) | Nuclear receptor subfamily 1 group I member 2 (NR1I2, Homo sapiens, UniProt O75469) | binding | – | 30 min, pH 7.5 | Kd | 0.297 µM
CN(C)CCNC(=O)CSc1nc(N)c2c3c(sc2n1)CCC3 | eis | inhibitor | – | – | IC50 | 11000 ± 1000 nM

Excerpt of the above:
Compound | target | test | test system | setting | measurement | value
Cc1nc2ccc(CN(C)c3ccc(C(=O)N[C@H](CCC(=O)O)C(=O)O)s3)cc2c(=O)[nH]1 | 4'-phosphopantetheinyl transferase PptT | enzyme activity, inhibitor, fluorescence polarization | – | enzyme 100 nM | IC50 | 70 nM
CN(C)CCNC(=O)CSc1nc(N)c2c3c(sc2n1)CCCCC3 | eis | inhibitor | – | – | IC50 | 8700 ± 1200 nM
CC[C@H](C)[C@H](NC(=O)[C@@H](NC(=O)[C@@H](N)CO)[C@@H](C)CC)C(=O)N[C@@H](CC(N)=O)C(=O)N[C@@H](Cc1ccccc1)C(=O)N[C@@H](CCC(=O)O)C(=O)N[C@@H](CCCCN)C(=O)N[C@@H](CC(C)C)C(=O)O | H-2 class I histocompatibility antigen, K-B alpha chain, 25 (H2-K1, Mus musculus, UniProt P01901) | – | – | 37 °C | Kd | 0.0822 µM
